Measurements from different studies.
Lines come from different studies, so protocols differ. ± marks the error that the study gave.
rep main protease: Replicase polyprotein 1ab, main protease (rep, Severe acute respiratory syndrome coronavirus 2, UniProt P0DTD1)
rep nsp14: Replicase polyprotein 1ab, nsp14 (rep, Severe acute respiratory syndrome coronavirus 2, UniProt P0DTD1)
Chain of UniProt P35372 (whole entry, looked up): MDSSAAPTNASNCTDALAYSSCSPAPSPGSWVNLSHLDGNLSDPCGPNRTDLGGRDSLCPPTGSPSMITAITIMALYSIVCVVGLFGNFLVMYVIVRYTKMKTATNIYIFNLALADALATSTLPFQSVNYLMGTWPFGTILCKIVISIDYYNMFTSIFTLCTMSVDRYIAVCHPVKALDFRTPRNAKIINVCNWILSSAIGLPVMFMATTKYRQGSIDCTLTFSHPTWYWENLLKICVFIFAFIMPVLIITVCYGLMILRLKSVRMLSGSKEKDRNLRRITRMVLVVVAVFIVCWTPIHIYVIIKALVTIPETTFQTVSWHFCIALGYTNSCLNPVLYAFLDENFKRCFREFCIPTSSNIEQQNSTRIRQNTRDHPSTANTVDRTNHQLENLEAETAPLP

SMILES	target or system	test	system	setting	measurement	value
O=C(O[C@@H]1Cc2c(O)cc(O)cc2O[C@@H]1c1ccc(O)c(O)c1)c1cc(O)c(O)c(O)c1	rep main protease	binding, SPR	–	–	Kd	16 µM
CCC(C)C(NC(=O)c1[nH]nc2c1CCC2)c1nc2ccccc2[nH]1 (stereo not shown)	Replicase polyprotein 1ab, nsp3 macrodomain (rep, Severe acute respiratory syndrome coronavirus 2, UniProt P0DTD1)	binding, microscale thermophoresis	–	4% DMSO	Kd	36.3 ± 2 µM
CC(=O)Oc1ccc(/C=C/C(=O)O[C@@H]2Cc3c(O)cc(O)cc3O[C@@H]2c2ccc(O)c(O)c2)cc1	rep main protease	binding, SPR	–	–	Kd	3.61 µM
O=c1oc2cc(O)ccc2c2ccc(O)cc12	rep main protease	microscale thermophoresis	SARS-CoV-2	overnight, pH 8, 4 °C	Kd	44.5 ± 7.1 µM
COc1ccc(-c2oc3cc(O)cc(O)c3c(=O)c2O)c(OC)c1O	rep main protease	binding	–	–	Kd	1.09 µM
CN(C)CCCNC(=O)C[C@H](Cc1ccc(F)cc1)NC(=O)[C@@H](Cc1ccc(Cl)cc1Cl)NC(=O)[C@H](N)Cc1ccccc1C#N	rep main protease	binding, SPR	–	–	Kd	0.063 µM
O=c1oc2c(O)c(O)ccc2c2cc(O)c(O)cc12	rep main protease	microscale thermophoresis	SARS-CoV-2	overnight, pH 8, 4 °C	Kd	0.065 ± 0.006 µM
CC(=O)N[C@@H](Cc1ccc(O)cc1)C(=O)N[C@@H](CC(=O)O)C(=O)NCCC(=O)N[C@@H](Cc1ccccc1)C(=O)N[C@@H](Cc1ccc(O)cc1)C(=O)NCCC(=O)N[C@@H](Cc1ccc(O)cc1)C(=O)N[C@H](C(=O)N[C@H](C(=O)N[C@@H](Cc1ccccc1)C(=O)N[C@@H](Cc1c[nH]cn1)C(=O)N[C@H](C(=O)N[C@@H](C)C(=O)N[C@H](C(N)=O)[C@@H](C)O)C(C)C)[C@@H](C)O)C(C)C	rep main protease	binding, SPR	–	–	Kd	0.0164 µM
CC(C)C[C@H](NC(=O)[C@H](CO[C@@H]1O[C@H](CO)[C@@H](O[C@@H]2O[C@H](CO)[C@H](O)[C@H](O)[C@H]2O)[C@H](O)[C@H]1O)NC(=O)[C@H](CCCCN)NC(=O)[C@H](CC(C)C)NC(=O)C(C)(C)NC(=O)[C@H](CCCCN)NC(=O)[C@H](CCC(=O)O)NC(=O)[C@H](C)NC(=O)[C@H](CC(C)C)NC(=O)[C@H](CC(N)=O)NC(=O)[C@@H]1CCCN1C(=O)[C@H](CC(C)C)NC(=O)[C@H](Cc1ccccc1)NC(=O)CNC(=O)[C@H](NC(=O)[C@@H](N)Cc1ccc(O)cc1)[C@H](C)O)C(N)=O	Mu-type opioid receptor (OPRM1, Homo sapiens, UniProt P35372)	radioligand displacement	CHO membranes	60 min, pH 7.5, 25 °C, together with: 0.25 nM [3H]DAMGO	Ki	0.0082 ± 0.0006 µM
CC[C@H](C)[C@H](NC(C)=O)C(=O)N[C@@H](CO)C(=O)N[C@@H](CC(C)C)C(=O)N[C@@H](CCC(=O)O)C(=O)N[C@@H](CCCNC(=N)N)C(=O)N[C@@H](CC(C)C)C(=O)N[C@@H](CC(=O)O)C(=O)N[C@H](C(=O)NCC(=O)N[C@H](C(=O)N[C@@H](CC(N)=O)C(=O)N[C@@H](CC(C)C)C(=O)NCC(=O)N[C@@H](CC(N)=O)C(=O)N[C@@H](C)C(=O)N[C@H](C(=O)N[C@@H](C)C(=O)N[C@@H](CCCCN)C(=O)N[C@@H](CC(C)C)C(=O)N[C@@H](CCC(=O)O)C(=O)N[C@@H](CC(=O)O)C(=O)N[C@@H](C)C(=O)N[C@@H](CCCCN)C(=O)N[C@@H](CCC(=O)O)C(=O)N[C@@H](CC(C)C)C(=O)N[C@@H](CC(C)C)C(=O)N[C@@H](CCC(=O)O)C(=O)N[C@@H](CO)C(=O)N[C@@H](CO)C(=O)N[C@@H](CC(=O)O)C(=O)N[C@@H](CCC(N)=O)C(=O)N[C@H](C(=O)N[C@@H](CC(C)C)C(=O)N[C@@H](CCCNC(=N)N)C(=O)N[C@@H](CO)C(N)=O)[C@@H](C)CC)[C@@H](C)CC)[C@@H](C)O)C(C)C	B95a	MTT	–	8 days, 37 °C	CC50	> 10 µM
O=S(=O)(O)c1cccc2cccc(Nc3ccccc3)c12	rep main protease	binding, fluorescence	–	–	Kd	57 µM
CNC(=O)C[C@H](Cc1ccc(F)cc1)NC(=O)[C@@H](Cc1ccc(Cl)cc1Cl)NC(=O)[C@H](N)Cc1ccccc1C#N	rep main protease	binding, SPR	–	–	Kd	0.434 µM
O=C(/C=C/c1ccc(O)c(O)c1)O[C@@H]1Cc2c(O)cc(O)cc2O[C@@H]1c1ccc(O)c(O)c1	rep main protease	binding, SPR	–	–	Kd	4.29 µM
Nc1ncnc2c1ncn2[C@@H]1O[C@H](CSCCNC(=O)NCC2CCCCC2)[C@@H](O)[C@H]1O	rep nsp14	binding to nsp14, surface plasmon resonance	–	–	Kd	2.4 µM
CC(=O)N[C@@H](Cc1ccc(O)cc1)C(=O)N[C@@H](CCCNC(=N)N)C(=O)N[C@@H](Cc1ccccc1)C(=O)N[C@H]1CCC[C@@H]1C(=O)N[C@@H](CCCNC(=N)N)C(=O)N[C@@H](CC(N)=O)C(=O)N[C@H]1CCC[C@@H]1C(=O)N[C@H](C(=O)N[C@@H](Cc1ccccc1)C(=O)N[C@H]1CCC[C@@H]1C(=O)N[C@@H](Cc1ccccc1)C(=O)N[C@@H](Cc1ccc(O)cc1)C(=O)N[C@H]1CCC[C@@H]1C(=O)N[C@H](C(=O)N[C@@H](CC(=O)O)C(N)=O)[C@@H](C)O)C(C)C	rep main protease	binding, SPR	–	–	Kd	0.0151 µM
CCCCCCCCCCCCCCCC(=O)N[C@@H](CCC(=O)NCCOCCOCCC(=O)NCCOCCOCCC(=O)NCCCC[C@H](NC(=O)[C@H](CC(=O)O)NC(=O)[C@H](CC(C)C)NC(=O)[C@H](Cc1ccc(O)cc1)NC(=O)[C@H](CCCCN)NC(=O)[C@H](CO)NC(=O)[C@H](Cc1ccc(O)cc1)NC(=O)[C@H](CC(=O)O)NC(=O)[C@H](CO)NC(=O)[C@@H](NC(=O)[C@H](Cc1ccccc1)NC(=O)[C@@H](NC(=O)CNC(=O)[C@H](CCC(N)=O)NC(=O)[C@@H](CO)NC(=O)[C@@H](N)Cc1c[nH]cn1)[C@@H](C)O)[C@@H](C)O)C(=O)N[C@@H](CCCNC(=N)N)C(=O)N[C@@H](CCCNC(=N)N)C(=O)N[C@@H](C)C(=O)N[C@@H](CCC(N)=O)C(=O)N[C@@H](CC(=O)O)C(=O)N[C@@H](Cc1ccccc1)C(=O)N[C@H](C(=O)N[C@@H](CCC(N)=O)C(=O)N[C@@H](Cc1c[nH]c2ccccc12)C(=O)N[C@@H](CC(C)C)C(=O)N[C@@H](CC(C)C)C(=O)N[C@@H](CC(N)=O)C(=O)N[C@H](C(=O)NCC(=O)NCC(=O)N1CCC[C@H]1C(=O)N[C@@H](CO)C(=O)N[C@@H](CO)C(=O)NCC(=O)N[C@@H](C)C(=O)N1CCC[C@H]1C(=O)N1CCC[C@H]1C(=O)N1CCC[C@H]1C(=O)N[C@@H](CO)C(N)=O)[C@@H](C)O)C(C)C)C(=O)O	–	–	rhesus monkey, plasma	subcutaneous, 5 µg/kg, single dose	half-life	3.33 h
Oc1c(Br)cc(Br)c2cccnc12	Replicase polyprotein 1ab, papain-like protease (rep, Severe acute respiratory syndrome coronavirus 2, UniProt P0DTD1)	binding, SPR	–	–	Kd	0.2 µM
CCc1ccccc1NC(=S)N/N=C/c1ccc(O)cc1O	MCF7	–	–	25 µM	viability	> 98%
Oc1cc(O)c2c(c1)O[C@H](c1cc(O)c(O)c(O)c1)[C@H](O)C2	rep main protease	binding, SPR	–	–	Kd	11.2 µM
CSC[C@H]1O[C@@H](n2cnc3c(N)ncnc32)[C@H](O)[C@@H]1O	rep nsp14	binding to nsp14, surface plasmon resonance	–	–	Kd	6.2 µM
O=C(Nc1ccc(-c2noc(O)n2)cc1)C1CCCS1 (stereo not shown)	Replicase polyprotein 1ab, nsp12 RdRp (rep, Severe acute respiratory syndrome coronavirus 2, UniProt P0DTD1)	binding	–	–	Kd	> 200 µM
CC[C@H](C)[C@H](NC(=O)[C@H](C)NC(=O)[C@H](CCC(=O)O)NC(=O)[C@H](CCC(=O)O)NC(=O)[C@H](CC(C)C)NC(=O)[C@H](CCCCN)NC(=O)[C@H](CCCCN)NC(=O)[C@H](CCSC)NC(=O)[C@H](CCC(=O)O)NC(=O)[C@H](Cc1ccc(O)cc1)NC(=O)[C@H](CCC(=O)O)NC(=O)[C@H](CC(C)C)NC(=O)[C@H](CC(=O)O)NC(=O)[C@H](CC(C)C)NC(=O)[C@H](Cc1ccccc1)NC(=O)[C@@H](NC(=O)[C@@H](NC(=O)[C@@H](N)CC(N)=O)C(C)C)[C@@H](C)O)C(=O)N[C@@H](CCCCN)C(=O)N[C@@H](CCCCN)C(=O)N[C@@H](CC(C)C)C(=O)N[C@@H](CCC(=O)O)C(=O)N[C@@H](CCC(=O)O)C(=O)N[C@@H](CO)C(=O)N[C@@H](Cc1ccc(O)cc1)C(=O)N[C@H](C(=O)N[C@@H](CC(=O)O)C(=O)N[C@@H](CC(C)C)C(=O)N[C@@H](CCCCN)C(=O)N[C@@H](CCC(=O)O)C(=O)N[C@@H](CC(C)C)C(=O)NCC(=O)N[C@H](C(=O)N[C@@H](Cc1ccc(O)cc1)C(=O)N[C@@H](CCC(=O)O)C(=O)N[C@@H](Cc1ccc(O)cc1)C(=O)NCC(=O)N[C@@H](CO)C(=O)NCC(=O)N[C@@H](CSCC(=O)O[C@H]1CC[C@@]2(C)C(=CC[C@H]3[C@@H]4CC[C@H]([C@H](C)CCCC(C)C)[C@@]4(C)CC[C@@H]32)C1)C(N)=O)[C@@H](C)O)[C@@H](C)CC	SARS-CoV-2	pseudovirus infection	mouse serum	concentration not given	loss of inhibitory activity	~20%

Repeated from above:
SMILES	target or system	test	system	setting	measurement	value
CC[C@H](C)[C@H](NC(C)=O)C(=O)N[C@@H](CO)C(=O)N[C@@H](CC(C)C)C(=O)N[C@@H](CCC(=O)O)C(=O)N[C@@H](CCCNC(=N)N)C(=O)N[C@@H](CC(C)C)C(=O)N[C@@H](CC(=O)O)C(=O)N[C@H](C(=O)NCC(=O)N[C@H](C(=O)N[C@@H](CC(N)=O)C(=O)N[C@@H](CC(C)C)C(=O)NCC(=O)N[C@@H](CC(N)=O)C(=O)N[C@@H](C)C(=O)N[C@H](C(=O)N[C@@H](C)C(=O)N[C@@H](CCCCN)C(=O)N[C@@H](CC(C)C)C(=O)N[C@@H](CCC(=O)O)C(=O)N[C@@H](CC(=O)O)C(=O)N[C@@H](C)C(=O)N[C@@H](CCCCN)C(=O)N[C@@H](CCC(=O)O)C(=O)N[C@@H](CC(C)C)C(=O)N[C@@H](CC(C)C)C(=O)N[C@@H](CCC(=O)O)C(=O)N[C@@H](CO)C(=O)N[C@@H](CO)C(=O)N[C@@H](CC(=O)O)C(=O)N[C@@H](CCC(N)=O)C(=O)N[C@H](C(=O)N[C@@H](CC(C)C)C(=O)N[C@@H](CCCNC(=N)N)C(=O)N[C@@H](CO)C(N)=O)[C@@H](C)CC)[C@@H](C)CC)[C@@H](C)O)C(C)C	B95a	MTT	–	8 days, 37 °C	CC50	> 10 µM
O=S(=O)(O)c1cccc2cccc(Nc3ccccc3)c12	rep main protease	binding, fluorescence	–	–	Kd	57 µM
